{"data": "Assay results pooled from the literature", "note": "Every numbered part comes from another study and shows a few of its results, in no order."}
{"data": "Block 1", "target": "Centromere-binding protein 1, full length, N-terminal tag (CBF1, Saccharomyces cerevisiae, UniProt P17106, residues 1-351)", "method": "protein-binding microarray", "form": "double-stranded DNA, one strand shown", "medium": "in vitro", "concentration": "0.8 µM", "notes": "whole 60-bp probe, no competitor", "direction": "higher = stronger binding", "shared flanks, not repeated": "… GTCTTGATTCGCTTGACGCTGCTG", "UniProt P17106, sequence (whole entry, looked up)": "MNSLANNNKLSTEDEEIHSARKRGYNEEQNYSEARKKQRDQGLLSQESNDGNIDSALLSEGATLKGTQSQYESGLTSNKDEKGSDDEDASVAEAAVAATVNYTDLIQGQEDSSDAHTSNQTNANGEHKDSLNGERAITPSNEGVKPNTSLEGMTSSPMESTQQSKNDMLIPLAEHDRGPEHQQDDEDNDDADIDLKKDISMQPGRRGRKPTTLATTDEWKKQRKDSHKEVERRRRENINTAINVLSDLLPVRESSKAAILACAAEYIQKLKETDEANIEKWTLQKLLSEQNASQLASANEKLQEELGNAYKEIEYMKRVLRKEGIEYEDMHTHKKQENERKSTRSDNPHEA"}
{"Strand": "GAAGTCTACATCTTGCATGTGACATAAGTAAGTTAG", "fluorescence intensity [a.u.]": 2920}
{"Strand": "GAAATGATATAATATCACCTCACGCATGCCTATTAG", "fluorescence intensity [a.u.]": 555}
{"Strand": "GAAATATCACAACGTCACGTTGAATAAGGCCATTAG", "fluorescence intensity [a.u.]": 1190}
{"Strand": "CTAAAATAACATACACACGTGTAAGAATATATATTC", "fluorescence intensity [a.u.]": 4750}
{"Strand": "GAAGACATAGTTCACGCGGTAATTTTTTTTCGCTAG", "fluorescence intensity [a.u.]": 548}
{"Strand": "CTATCTATTTTGATGAACATCAGGAATTGAAACTTC", "fluorescence intensity [a.u.]": 571}
{"Strand": "CTAGTCTTACCCCGCCACGCGTTAATAGTGAGATTC", "fluorescence intensity [a.u.]": 493}
{"data": "Block 2", "target": "Fragile X messenger ribonucleoprotein 1, C-terminal low-complexity region (Fmr1, Mus musculus, UniProt P35922)", "method": "RNA Bind-n-Seq", "form": "RNA", "medium": "in vitro", "concentration": "200 nM", "notes": "whole 134-nt RNA, ends assumed", "together with": "150 mM KCl", "relative to": "input library", "direction": "higher = stronger binding", "shared flanks, not repeated": "GGGAGUUCUACAGUCCGACGAUC … UGGAAUUCUCGGGUGUCAAGG"}
{"Strand": "CAAGUCCUGUGCUACACAUCGUAUGUACCGAAUCGGGAAAAAAAGGGAGGGAGGGAAAGUAUUAUGUUACGCCGUUCGGAUCUGCACUUC", "log2 enrichment": 0.805}
{"Strand": "ACCAUGCAGGUGGGCAUCUUUGGGAAGUGGGGCAGGGGGGGGAUAGGGAGGGGGGUAACACUUUGGGAACAGGUGGUCCCAGGUCGUUUC", "log2 enrichment": 0.609}
{"Strand": "GUCCUGUGCUACACAUCGUAUGUACCGAAUCGGGGAAAGGGGUGGGGUUUUUUUGGGGAAAGUAUUAUGUUACGCCGUUCGGAUCUGCAC", "log2 enrichment": 0.747}
{"Strand": "UAACUUUAGAGGAGGAUCUGAUGGAUAUGGCAGUGGACGUGGAUUUGGGGAUGGCUAUAAUGGGAAUGGAGGAGGACCUGGAGGUGGCAA", "log2 enrichment": 0.235}
{"Strand": "AGUCCUGUGCUACACAUCGUAUGUACCGAAUCGGCCCCCGGGGCCCCCGGCCCCCGGAAAGUAUUAUGUUACGCCGUUCGGAUCUGCACU", "log2 enrichment": -0.522}
{"Strand": "AGUCCUGUGCUACACAUCGUAUGUACCGAAUCAAAUUUUUAAACCCCCAAACCCAAAAAAGUAUUAUGUUACGCCGUUCGGAUCUGCACU", "log2 enrichment": -0.198}
{"Strand": "UCAAGUCCUGUGCUACACAUCGUAUGUACCGAAUCGGAAAGGGAAAGGGAAAGGGAAAGUAUUAUGUUACGCCGUUCGGAUCUGCACUUC", "log2 enrichment": -0.487}
{"Strand": "ACCAUGCAGGUGGGCAUCUUUGGGAAGUGGGGCAAGGGGGGGAUAGGGAGGGGGGUAACACUUUGGGACCAGGUGGUCCCAGGUCGUUUC", "log2 enrichment": 0.723}
{"Strand": "CUGUGCUACACAUCGUAUGUACCGAAUCGGGUUUUUUUGGUUUUUUUGGGGUUUUUUUGGGGAAAGUAUUAUGUUACGCCGUUCGGAUCU", "log2 enrichment": -0.312}
{"Strand": "UCCUGUGCUACACAUCGUAUGUACCGAAUCGGUUUUUUUGGGUUUUUUUGGUUUUUUUGGAAAGUAUUAUGUUACGCCGUUCGGAUCUGC", "log2 enrichment": 0.114}
{"data": "Block 3", "target": "RING finger protein unkempt homolog, zinc fingers 1-6, GST-SBP tag (UNK, Homo sapiens, UniProt Q9C0B0, residues 30-357)", "method": "RNA Bind-n-Seq", "form": "RNA", "medium": "in vitro", "concentration": "not given", "notes": "RNA with constant flanks, human and mouse sites, ends assumed", "relative to": "input RNA pool", "direction": "higher = stronger binding", "UniProt Q9C0B0, sequence (30-357, looked up)": "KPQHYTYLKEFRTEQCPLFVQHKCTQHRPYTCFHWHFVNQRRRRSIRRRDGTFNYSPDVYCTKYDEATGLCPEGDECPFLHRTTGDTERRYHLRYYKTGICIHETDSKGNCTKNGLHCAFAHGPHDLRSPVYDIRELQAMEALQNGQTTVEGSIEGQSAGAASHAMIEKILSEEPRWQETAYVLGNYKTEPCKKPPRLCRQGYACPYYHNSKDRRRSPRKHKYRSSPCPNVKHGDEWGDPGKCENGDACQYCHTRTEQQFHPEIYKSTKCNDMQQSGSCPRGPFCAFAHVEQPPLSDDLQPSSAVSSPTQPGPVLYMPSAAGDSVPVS"}
{"Strand": "GGGAGUUCUACAGUCCGACGAUCAAGUUUGGACAUCAUGAAGAUGCUGCUUAUGUAUUGUGCCAAGAUGGAGAAAGAUGGCUACGGAAUGACUCCUCUUCUCUCAGCAAGUGUGACUGGUCACACUAAUAUUGUGGAUUUUCUCAACAGAGGAUUGAGCAUCA", "bound/input enrichment [ratio]": 0.145}
{"Strand": "GGGAGUUCUACAGUCCGACGAUCUGUCUGUUACACAGCUUUGACAGAGCUUUCUUAGGAAACAUGAUUAAAAAAAAACACUCCCAACUUCAAAAAUGUAUCAGGUGAAGAGGCAUGGGCAGAAUUGUGUCUUUUCUGGUCUGACAACAGAGGAUUGAGCAUCA", "bound/input enrichment [ratio]": 0.397}
{"Strand": "GGGAGUUCUACAGUCCGACGAUCAGCCCGCGGGCGCCUCAGGUAGAAGAAGAAAGGUGCCACUCCGGCAUGAAGACAGACUCGCUUAGUCGCCAGUCACUUAAGCUGAGUGCAUUGUGAUUUCCAAUAAUUGAGGCAGUGGUUCAACAGAGGAUUGAGCAUCA", "bound/input enrichment [ratio]": 0.117}
{"Strand": "GGGAGUUCUACAGUCCGACGAUCCCUGAGAUAUGCACCCUGUGUCCGGGAGGUAUGCACAAUUUGUCCAGAGUGGCUGCUUACUGUGAGGAUACAUCGAAGCUAAUGCAGGCCCGAUGCUGCCUGAAUCAGAAGGGCACCAUCCAACAGAGGAUUGAGCAUCA", "bound/input enrichment [ratio]": 0.117}
{"data": "Further values, each from its own experiment"}
{"Substance": "PhoQ, residues 284 288 289 292 302 303 TASMAF", "target": "PhoP, residues 12 14 15 18 19 STWGI (Escherichia coli, UniProt P23836)", "test": "Sort-seq, refers to: YFP reporter", "test system": "E. coli", "conditions": "PhoQ-PhoP variant library, together with: 10 µM Mg2+", "how to read": "relative to: high Mg2+ state, higher = stronger signaling", "measurement": "fold induction", "result": 12.6}
{"note": "A few entries again (block 1):"}
{"Strand": "GAAATATCACAACGTCACGTTGAATAAGGCCATTAG", "fluorescence intensity [a.u.]": 1190}
{"Strand": "CTAAAATAACATACACACGTGTAAGAATATATATTC", "fluorescence intensity [a.u.]": 4750}
{"Strand": "GAAGACATAGTTCACGCGGTAATTTTTTTTCGCTAG", "fluorescence intensity [a.u.]": 548}
